# Measured values pooled from the literature.
# Protocols differ between the studies behind these lines. ± marks the error that the study gave.
Compound,tested on,assay,test system,conditions,measurement,result
CC(COC(=O)c1ccccc1)OC(=O)C(N)Cc1ccccc1 (mixture of isomers),,,isotonic buffer,"pH 4.0, 37 °C",half-life,> 30 h
COC(=O)CCC(C)C1CCC2C3C(O)CC4CC(OC(=O)CCC(=O)OC5OC6OC7(C)CCC8C(C)CCC(C5C)C68OO7)CCC4(C)C3CCC12C (stereo not shown),,chemical stability,culture medium,20 µM,half-life,~15 h
COc1cc(NC(=O)C(=O)c2c(C)n(Cc3ccc(Cl)cc3)c3ccc(C)cc23)ccn1,,,"cynomolgus monkey, female, plasma","oral, 10 mg/kg",half-life,15.8 h
CC[C@H](C)[C@@H]1NC(=O)[C@H](Cc2ccc(O)cc2)NC(=O)[C@@H](N)CSCSC[C@@H](C(=O)N2CCC[C@H]2C(=O)N[C@@H](CC(C)C)C(=O)NCC(N)=O)NC(=O)[C@H](CC(N)=O)NC(=O)[C@H](CCC(N)=O)NC1=O,,,phosphate buffer,"0.1 mg/mL, pH 7.0, 55 °C",half-life,192 h
CC(C)C[C@@H](/C=C/CC(=O)NC1CC(C)(C)N([O])C(C)(C)C1)NC(=O)OC(C)(C)C,,,"C57BL/6NHsd mouse, female, liver",,half-life,1 h
CC[C@H](C)[C@@H]1NC(=O)[C@H](CC(N)=O)NC(=O)[C@@H]2CCCN2C(=O)[C@@H](NC(=O)[C@H](CC(N)=O)NC(=O)[C@@H](N)CCC(N)=O)COC(=O)[C@H](CCSC)NC(=O)[C@H](Cc2c[nH]c3ccccc23)NC(=O)[C@H](CCC(N)=O)NC(=O)CNC(=O)[C@H](Cc2ccccc2)NC1=O,,chemical stability,PBS,"280 µM, pH 7.2",half-life,~4 h
CC(C)C[C@H](NC(=O)[C@H](CCCCN)NC(=O)[C@H](CCC(=O)O)NC(=O)[C@H](C)NC(=O)[C@@H](NC(=O)[C@H](CCCCN)NC(=O)[C@H](CC(=O)O)NC(=O)[C@H](Cc1ccc(O)cc1)NC(=O)[C@H](Cc1ccccc1)NC(=O)[C@H](C)NC(=O)[C@H](CCCCN)NC(=O)[C@H](CC(C)C)NC(=O)[C@H](Cc1c[nH]c2ccccc12)NC(=O)[C@@H](N)CC(=O)O)C(C)C)C(=O)N[C@@H](CCCCN)C(=O)N[C@@H](CCC(=O)O)C(=O)N[C@@H](C)C(=O)N[C@@H](Cc1ccccc1)C(=O)N1CCC[C@H]1C(=O)N[C@@H](CC(=O)O)C(=O)N[C@@H](Cc1c[nH]c2ccccc12)C(=O)N[C@@H](C)C(=O)N[C@@H](CCCCN)C(=O)N[C@@H](C)C(=O)N[C@@H](C)C(=O)N[C@@H](Cc1ccc(O)cc1)C(=O)N[C@@H](CC(=O)O)C(=O)N[C@@H](CCCCN)C(=O)N[C@@H](C)C(=O)N[C@@H](C)C(=O)N[C@@H](CCC(=O)O)C(=O)N[C@@H](CCCCN)C(=O)N[C@@H](C)C(=O)N[C@@H](CCCCN)C(=O)N[C@@H](CCC(=O)O)C(=O)N[C@@H](C)C(=O)N[C@@H](C)C(=O)O,,,"cynomolgus monkey female, plasma","intravenous infusion, 25 mg/kg, day 1, 30 min infusion",half-life,4 h
CC(C)(CCCC/C=C/CCCCCC(C)(C)C(=O)O)C(=O)O,,,"ICR mouse, plasma","intravenous, 10 mg/kg",half-life,4.55 h
CC(COC(=O)c1ccccc1)OC(=O)C(N)C(C)C (mixture of isomers),,,isotonic buffer,"pH 7.4, 37 °C",half-life,24.2 ± 2.76 h
CN[C@](C)(C[18F])C(=O)O,DU-145 tumour model,,"host not given, lung","15 min, tumour-bearing",tracer uptake,3.6 %ID/g

# A few entries again:
Compound,tested on,assay,test system,conditions,measurement,result
COC(=O)CCC(C)C1CCC2C3C(O)CC4CC(OC(=O)CCC(=O)OC5OC6OC7(C)CCC8C(C)CCC(C5C)C68OO7)CCC4(C)C3CCC12C (stereo not shown),,chemical stability,culture medium,20 µM,half-life,~15 h
